Measured values from different studies.
Every numbered part comes from another study and shows a few of its results, in no order.
UniProt P52564, sequence (whole entry, looked up): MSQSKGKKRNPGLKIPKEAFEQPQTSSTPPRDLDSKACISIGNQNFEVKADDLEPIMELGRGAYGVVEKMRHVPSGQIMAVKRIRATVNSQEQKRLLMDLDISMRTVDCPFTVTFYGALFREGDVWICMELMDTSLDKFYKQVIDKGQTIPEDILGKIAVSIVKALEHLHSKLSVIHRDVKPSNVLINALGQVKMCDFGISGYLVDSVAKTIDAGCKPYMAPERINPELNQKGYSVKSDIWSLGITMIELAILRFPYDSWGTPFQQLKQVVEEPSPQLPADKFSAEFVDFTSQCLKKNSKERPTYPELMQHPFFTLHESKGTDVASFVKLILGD
UniProt P41743, sequence (whole entry, looked up): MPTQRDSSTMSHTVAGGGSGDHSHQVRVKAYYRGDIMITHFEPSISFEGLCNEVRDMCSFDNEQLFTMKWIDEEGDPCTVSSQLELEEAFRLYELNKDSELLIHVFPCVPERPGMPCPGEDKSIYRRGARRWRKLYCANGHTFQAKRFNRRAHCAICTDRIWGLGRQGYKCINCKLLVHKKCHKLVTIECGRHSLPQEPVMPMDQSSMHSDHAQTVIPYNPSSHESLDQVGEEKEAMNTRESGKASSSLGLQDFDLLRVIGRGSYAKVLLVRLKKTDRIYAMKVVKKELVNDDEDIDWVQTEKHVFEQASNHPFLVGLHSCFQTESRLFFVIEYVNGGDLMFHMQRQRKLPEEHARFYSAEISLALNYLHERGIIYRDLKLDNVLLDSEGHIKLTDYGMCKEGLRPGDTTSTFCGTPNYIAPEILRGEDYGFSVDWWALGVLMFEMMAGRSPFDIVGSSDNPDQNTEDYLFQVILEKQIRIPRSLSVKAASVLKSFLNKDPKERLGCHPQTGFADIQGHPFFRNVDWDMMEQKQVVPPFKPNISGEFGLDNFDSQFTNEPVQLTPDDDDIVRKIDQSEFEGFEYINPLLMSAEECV
UniProt P08913, sequence (whole entry, looked up): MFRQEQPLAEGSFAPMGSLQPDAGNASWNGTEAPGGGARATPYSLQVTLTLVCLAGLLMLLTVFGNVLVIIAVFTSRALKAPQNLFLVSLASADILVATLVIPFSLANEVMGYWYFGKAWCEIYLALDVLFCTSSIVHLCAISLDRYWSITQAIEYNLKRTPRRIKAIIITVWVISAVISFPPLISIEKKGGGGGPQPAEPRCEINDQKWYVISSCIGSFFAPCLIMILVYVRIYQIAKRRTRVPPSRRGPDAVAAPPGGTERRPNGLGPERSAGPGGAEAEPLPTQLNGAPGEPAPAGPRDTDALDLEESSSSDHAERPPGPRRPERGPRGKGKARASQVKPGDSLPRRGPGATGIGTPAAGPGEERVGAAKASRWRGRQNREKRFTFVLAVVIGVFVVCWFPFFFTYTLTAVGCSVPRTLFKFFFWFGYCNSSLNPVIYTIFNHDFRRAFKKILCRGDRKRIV
UniProt Q5S007, sequence (whole entry, looked up): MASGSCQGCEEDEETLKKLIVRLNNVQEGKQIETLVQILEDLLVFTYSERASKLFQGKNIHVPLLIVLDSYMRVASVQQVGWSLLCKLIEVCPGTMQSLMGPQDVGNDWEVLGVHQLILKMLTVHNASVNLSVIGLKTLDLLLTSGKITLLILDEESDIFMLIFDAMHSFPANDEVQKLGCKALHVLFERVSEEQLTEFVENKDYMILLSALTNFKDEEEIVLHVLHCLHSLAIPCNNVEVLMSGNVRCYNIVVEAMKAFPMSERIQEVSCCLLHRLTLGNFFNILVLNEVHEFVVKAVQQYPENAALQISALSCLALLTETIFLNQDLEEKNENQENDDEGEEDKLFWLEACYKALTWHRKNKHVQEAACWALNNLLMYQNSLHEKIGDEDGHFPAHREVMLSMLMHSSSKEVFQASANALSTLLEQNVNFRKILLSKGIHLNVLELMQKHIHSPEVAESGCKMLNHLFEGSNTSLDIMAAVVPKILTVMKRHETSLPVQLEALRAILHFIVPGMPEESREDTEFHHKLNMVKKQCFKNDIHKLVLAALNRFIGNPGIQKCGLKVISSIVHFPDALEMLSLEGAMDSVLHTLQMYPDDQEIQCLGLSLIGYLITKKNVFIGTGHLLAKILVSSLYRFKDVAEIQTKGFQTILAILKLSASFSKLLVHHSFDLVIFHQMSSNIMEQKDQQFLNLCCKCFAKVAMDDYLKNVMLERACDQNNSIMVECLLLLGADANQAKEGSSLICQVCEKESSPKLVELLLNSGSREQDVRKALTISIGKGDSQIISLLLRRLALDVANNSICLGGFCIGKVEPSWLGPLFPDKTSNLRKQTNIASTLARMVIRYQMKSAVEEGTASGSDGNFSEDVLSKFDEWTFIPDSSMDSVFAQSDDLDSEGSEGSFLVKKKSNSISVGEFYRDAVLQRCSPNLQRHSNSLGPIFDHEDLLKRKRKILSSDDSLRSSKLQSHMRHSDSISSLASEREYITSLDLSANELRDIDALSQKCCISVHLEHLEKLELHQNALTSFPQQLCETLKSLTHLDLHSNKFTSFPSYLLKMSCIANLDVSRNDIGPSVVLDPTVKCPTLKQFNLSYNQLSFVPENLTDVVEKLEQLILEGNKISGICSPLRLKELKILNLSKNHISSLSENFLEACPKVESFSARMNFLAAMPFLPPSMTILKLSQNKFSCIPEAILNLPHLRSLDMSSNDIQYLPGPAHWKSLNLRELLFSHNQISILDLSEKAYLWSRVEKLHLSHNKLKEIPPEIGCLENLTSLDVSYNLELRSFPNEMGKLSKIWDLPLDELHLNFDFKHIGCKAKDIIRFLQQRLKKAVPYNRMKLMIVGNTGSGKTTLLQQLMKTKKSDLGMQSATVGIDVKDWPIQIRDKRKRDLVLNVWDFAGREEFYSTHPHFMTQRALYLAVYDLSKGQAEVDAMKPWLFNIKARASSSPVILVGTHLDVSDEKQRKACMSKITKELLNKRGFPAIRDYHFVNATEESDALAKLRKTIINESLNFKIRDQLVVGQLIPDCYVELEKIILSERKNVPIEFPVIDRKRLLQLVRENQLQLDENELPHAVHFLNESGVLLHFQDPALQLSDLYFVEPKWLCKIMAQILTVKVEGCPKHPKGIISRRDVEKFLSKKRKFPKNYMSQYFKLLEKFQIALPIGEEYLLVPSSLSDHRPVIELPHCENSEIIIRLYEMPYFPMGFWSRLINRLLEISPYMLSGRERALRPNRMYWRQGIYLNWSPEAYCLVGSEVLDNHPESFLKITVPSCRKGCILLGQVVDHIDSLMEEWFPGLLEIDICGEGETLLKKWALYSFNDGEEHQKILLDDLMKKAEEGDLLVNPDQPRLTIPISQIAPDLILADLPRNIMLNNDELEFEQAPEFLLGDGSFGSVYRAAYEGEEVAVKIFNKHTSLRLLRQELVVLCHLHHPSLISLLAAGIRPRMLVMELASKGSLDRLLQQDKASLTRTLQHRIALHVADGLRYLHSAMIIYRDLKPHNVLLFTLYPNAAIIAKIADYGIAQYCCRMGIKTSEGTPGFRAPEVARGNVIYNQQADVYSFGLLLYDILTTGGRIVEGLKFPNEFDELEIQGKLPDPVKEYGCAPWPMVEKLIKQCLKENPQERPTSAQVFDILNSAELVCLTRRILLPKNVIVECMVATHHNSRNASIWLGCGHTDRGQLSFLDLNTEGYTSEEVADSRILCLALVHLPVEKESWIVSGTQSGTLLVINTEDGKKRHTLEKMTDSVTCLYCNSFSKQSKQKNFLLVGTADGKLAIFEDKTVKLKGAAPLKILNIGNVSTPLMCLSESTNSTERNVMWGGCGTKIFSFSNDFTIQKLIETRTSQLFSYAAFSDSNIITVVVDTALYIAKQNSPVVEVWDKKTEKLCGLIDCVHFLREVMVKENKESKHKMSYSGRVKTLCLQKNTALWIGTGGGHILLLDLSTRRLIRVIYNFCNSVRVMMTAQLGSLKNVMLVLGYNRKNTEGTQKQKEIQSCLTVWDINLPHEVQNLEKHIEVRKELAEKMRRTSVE
UniProt P50406, sequence (whole entry, looked up): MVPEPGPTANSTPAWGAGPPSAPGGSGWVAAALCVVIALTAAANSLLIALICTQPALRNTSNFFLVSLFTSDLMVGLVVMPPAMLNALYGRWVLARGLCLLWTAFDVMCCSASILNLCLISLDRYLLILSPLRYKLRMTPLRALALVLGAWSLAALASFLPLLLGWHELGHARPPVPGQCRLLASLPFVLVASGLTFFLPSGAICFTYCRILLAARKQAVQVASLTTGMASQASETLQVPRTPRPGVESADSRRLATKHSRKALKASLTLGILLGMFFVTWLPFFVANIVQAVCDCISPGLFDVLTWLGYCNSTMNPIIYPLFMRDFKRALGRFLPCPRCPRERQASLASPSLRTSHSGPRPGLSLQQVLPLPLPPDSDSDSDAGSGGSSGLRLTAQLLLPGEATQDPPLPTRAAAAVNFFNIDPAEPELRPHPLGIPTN
UniProt Q99720, sequence (whole entry, looked up): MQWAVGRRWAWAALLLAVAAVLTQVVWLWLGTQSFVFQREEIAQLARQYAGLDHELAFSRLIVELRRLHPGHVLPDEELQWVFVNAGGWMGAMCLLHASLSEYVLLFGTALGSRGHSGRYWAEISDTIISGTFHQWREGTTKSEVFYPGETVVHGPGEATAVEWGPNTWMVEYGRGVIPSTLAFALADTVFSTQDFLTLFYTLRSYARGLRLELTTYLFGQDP

Sample 1
SMILES: COc1ccc2c(c1)O[C@H](c1ccc(OC)c(OC)c1)C[C@@H]2NC(=O)C1(c2ccc3c(c2)OC(F)(F)O3)CC1
Observed: cell-free assay
Tested at: 10 µM
target	inhibition [%]
HTR6 (Homo sapiens, UniProt P50406)	-7.58
HRH1 (Homo sapiens, UniProt P35367)	22.3
DRD1 (Homo sapiens, UniProt P21728)	29.2
HTR7 (Homo sapiens, UniProt P34969)	-22.9
ADRA2A (Homo sapiens, UniProt P08913)	17.6
HTR3A (Homo sapiens, UniProt P46098)	-1.13
ADRA1A (Homo sapiens, UniProt P35348)	-10.2
CHRM5 (Homo sapiens, UniProt P08912)	2.95
SIGMAR1 (Homo sapiens, UniProt Q99720)	82.8

Sample 2
SMILES: NC(=O)c1ccc(N(C(N)=O)c2c(F)cccc2F)nc1-c1ccc(F)cc1F
Observed: enzyme activity
Mode: inhibitor
Tested at: 0.5 µM
Reference: control
target	remaining activity [%]
LRRK2 (Homo sapiens, UniProt Q5S007)	82
IRAK4 (Homo sapiens, UniProt Q9NWZ3)	87.5
MAPK13 (Homo sapiens, UniProt O15264)	94
MAP2K6 (Homo sapiens, UniProt P52564)	96.5
MAP3K10 (Homo sapiens, UniProt Q02779)	104
STK38 (Homo sapiens, UniProt Q15208)	101
PRKCD (Homo sapiens, UniProt Q05655)	104
LYN (Homo sapiens, UniProt P07948)	98.1
Cyclin-dependent kinase 9, with cyclin T1 (CDK9, Homo sapiens, UniProt P50750)	96.7
BTK (Homo sapiens, UniProt Q06187)	98.2
NEK4 (Homo sapiens, UniProt P51957)	104
PRKCI (Homo sapiens, UniProt P41743)	99.1

Sample 3
Target: Bromodomain-containing protein 4, BD1 (BRD4, Homo sapiens, UniProt O60885)
Observed: acetyl-histone H4 peptide binding
Technique: AlphaScreen displacement
Tested at: 50 µM
Structure (SMILES)	inhibition [%]
Nc1nc(SCc2ccc(Cl)cc2Cl)c2nc[nH]c2n1	32.6
Cc1cc(NC(=O)c2sc(Nc3ccccc3)nc2N)no1	28.3
O=C(CSc1ccc2nnc(-c3ccc(Cl)cc3)n2n1)Nc1nccs1	10.4
O=C(Cc1ccc(-c2ccc(OCCN3CCOCC3)cc2)cn1)NCc1ccccc1	9.3
COc1ccc(C(=O)Nc2ccc3[nH]ncc3c2)c(OC)c1	1.1
CCOC(=O)CC(=O)CSc1ccc2nnc(-c3ccc(OC)c(OC)c3)n2n1	15.6
COc1ccc(-c2nsc3c(=O)[nH]cnc23)cc1	28.7
CCOC(=O)c1[nH]c2ccc(F)cc2c1NC(=O)c1ccccc1C(=O)O	4

Sample 4
Target: Beta-1 adrenergic receptor (ADRB1, Homo sapiens, UniProt P08588)
UniProt P08588, sequence (whole entry, looked up): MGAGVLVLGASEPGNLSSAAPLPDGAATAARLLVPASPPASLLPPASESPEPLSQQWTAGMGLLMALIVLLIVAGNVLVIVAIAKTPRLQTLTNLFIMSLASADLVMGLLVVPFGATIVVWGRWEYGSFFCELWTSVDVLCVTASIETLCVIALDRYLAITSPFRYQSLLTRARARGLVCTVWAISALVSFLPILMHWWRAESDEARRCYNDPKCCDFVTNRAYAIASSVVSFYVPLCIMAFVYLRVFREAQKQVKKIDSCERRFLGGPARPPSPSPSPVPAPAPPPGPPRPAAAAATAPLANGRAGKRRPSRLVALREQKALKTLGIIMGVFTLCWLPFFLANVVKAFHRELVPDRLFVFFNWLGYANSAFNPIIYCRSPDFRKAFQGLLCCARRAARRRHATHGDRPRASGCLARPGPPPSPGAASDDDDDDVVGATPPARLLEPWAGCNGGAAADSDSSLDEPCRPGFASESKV
Mode: agonist
Structure (SMILES)	EC50
Cc1ccn(-c2ccc(NCC(O)C3CCCCC3)nn2)n1 (centres unmarked)	≥ 100 µM
C[n+]1ccc(-c2c3nc(c(-c4cc[n+](C)cc4)c4ccc([nH]4)c(-c4cc[n+](C)cc4)c4nc(c(-c5cc[n+](C)cc5)c5ccc2[nH]5)C=C4)C=C3)cc1	≥ 100 µM
CNc1nc(-c2cccc3ccccc23)ccc1C#N	≥ 100 µM
O=c1cc(N2CCOCC2)oc2c(NCc3ccc(F)cc3)nccc12	≥ 100 µM
CN1CCN(CC(O)COc2cccc3[nH]ccc23)c2ccccc21 (centres unmarked)	≥ 100 µM
Oc1ccccc1N1CCN(c2ccc3ccccc3n2)CC1	≥ 100 µM
c1ccc2c(c1)OCC(CNCc1cnc(N3CCOCC3)nc1)O2 (centres unmarked)	22.4 µM
COc1ccc(CC(C)(C)NC[C@H](O)c2cc(O)cc3c2OCC(=O)N3)cc1	≥ 100 µM
COc1cc(NC(=O)NCCN2CCN(c3ccccc3)CC2)cc(OC)c1OC	≥ 100 µM
Fc1ccc(-c2c[nH]c([C@@H]3COCCN3Cc3cnc4ccccc4c3)n2)cc1	≥ 100 µM
OC(c1ccccc1)c1nc(Nc2ccccc2)n[nH]1 (centres unmarked)	≥ 100 µM
Cc1cc2c(-c3ccccc3C)nc(-c3c(C)noc3C)cc2[nH]1	3.55 µM
CC(=O)NC(Cc1ccc(I)cc1)C(=O)NCC(N)C(=O)c1ccccc1 (centres unmarked)	≥ 100 µM
CN1CCC(Cn2ccc3c(N4CCOCC4)nc(-c4cccc5[nH]ccc45)cc32)CC1	≥ 100 µM
COc1ccc(Nc2n[nH]c(C(O)c3ccccc3)n2)cc1OC (centres unmarked)	≥ 100 µM

A few entries again (sample 4):
Structure (SMILES)	EC50
Oc1ccccc1N1CCN(c2ccc3ccccc3n2)CC1	≥ 100 µM
c1ccc2c(c1)OCC(CNCc1cnc(N3CCOCC3)nc1)O2 (centres unmarked)	22.4 µM
COc1ccc(CC(C)(C)NC[C@H](O)c2cc(O)cc3c2OCC(=O)N3)cc1	≥ 100 µM
COc1cc(NC(=O)NCCN2CCN(c3ccccc3)CC2)cc(OC)c1OC	≥ 100 µM
